Measurements pooled from the literature.
Compare with care: the assays were run in different laboratories. ± marks the error that the study gave.
Cell line: Caco-2 monolayer

| assay | system | conditions | scale | quantity | result | SMILES |
| --- | --- | --- | --- | --- | --- | --- |
| transwell permeability |  | 100 µg/mL, apical to basolateral, HBSS, DMSO 1%, together with: verapamil 0.1 mg/mL | relative to: verapamil alone | Papp increase | 16.8% | C[C@@H]1O[C@@H](OC[C@H]2O[C@@H](Oc3c(-c4ccc(O)c(O)c4)oc4cc(O)cc(O)c4c3=O)[C@H](O)[C@@H](O)[C@@H]2O)[C@H](O)[C@H](O)[C@H]1O |
|  |  | together with: cyclosporin A 4 µM | relative to: Papp B-A over Papp A-B | efflux ratio | 1.03 | O=C(CS)NCCCCCC(=O)Nc1cccc2cccnc12 |
|  |  |  |  | Papp (B-A) | 70.2 ×10⁻⁶ cm/s | Cn1nc2c(=O)n(C3CC3)ccc2c1[C@](O)(c1cnc(C(F)(F)F)c(Cl)c1)C(F)(F)F |
| transwell permeability |  | 100 µg/mL, apical to basolateral, HBSS, DMSO 1%, together with: digoxin 5 ng/mL | relative to: digoxin alone | Papp increase | 14.9% | O=c1c(O[C@@H]2O[C@H](CO)[C@H](O)[C@H](O)[C@H]2O)c(-c2ccc(O)c(O)c2)oc2cc(O)cc(O)c12 |
|  |  | 1 µM, together with: verapamil 100 µM |  | Papp apical to basolateral | 4.85 ×10⁻⁶ cm/s | Cc1cc(C)c(CNC(=O)c2cc(Cl)c3c(c2C)O[C@@](C)([C@H]2CC[C@H](N(C)C)CC2)O3)c(=O)[nH]1 |
|  |  |  |  | Papp (B-A) | 70.5 ×10⁻⁶ cm/s | Cn1nc2c(=O)n(C3CC3)cnc2c1[C@](O)(c1cnc(C(F)(F)F)c(Cl)c1)C(F)(F)F |
| transwell permeability |  | 100 µg/mL, apical to basolateral, HBSS, DMSO 1%, together with: verapamil 0.1 mg/mL | relative to: verapamil alone | Papp increase | 26.9% | O=c1cc(-c2ccc(O)cc2)oc2c([C@@H]3O[C@H](CO)[C@@H](O)[C@H](O)[C@H]3O)c(O)cc(O)c12 |
|  |  |  |  | Papp (B-A) | 51.3 ×10⁻⁶ cm/s | CCn1cc(C2CC2)c2c(Cc3ccc(C(F)(F)F)nc3)n(C)nc2c1=O |
|  | HBSS | 180 min, apical to basolateral |  | Papp | 0.043 ± 0.003 ×10⁻⁶ cm/s | CC(=O)N[C@H]1[C@H]([C@H](O)[C@H](O)CO)OC(C(=O)O)=C[C@@H]1N=C(N)N |
